{"data": "Published values pooled from the literature", "cqsS": "CAI-1 autoinducer sensor kinase/phosphatase CqsS (cqsS, Vibrio cholerae serotype O1, UniProt Q9KM66)", "PTPN1": "Tyrosine-protein phosphatase non-receptor type 1 (PTPN1, Homo sapiens, UniProt P18031)", "ACE2": "Angiotensin-converting enzyme 2 (ACE2, Homo sapiens, UniProt Q9BYF1)", "note": "± marks the error that the study gave."}
{"SMILES": "CC(C)c1nc2cc(O)ccc2c(=O)n1-c1ccc(C#N)cc1", "target": "Transient receptor potential cation channel subfamily V member 1 (TRPV1, Homo sapiens, UniProt Q8NER1, Y511F)", "assay": "ion current, whole-cell patch clamp", "setting": "pH 5", "how to read": "reference: mutant over wild type", "quantity": "IC50 ratio", "value": "5.8 fold"}
{"SMILES": "C/C=C(\\N)C(=O)CCCCCCCCCCCC", "target": "cqsS", "assay": "bioluminescence, agonist", "test system": "Vibrio cholerae", "how to read": "reference: Ea-CAI-1 at 100%", "quantity": "EC50", "value": "38%"}
{"SMILES": "CCCCCCc1ccc(Oc2ccccc2Br)c(O)c1", "target": "Enoyl-[acyl-carrier-protein] reductase [NADH] (inhA, Mycobacterium tuberculosis, UniProt P9WGR1)", "assay": "inhibitor, progress curve global fit", "setting": "20 °C, EI* to EI isomerisation", "quantity": "k6", "value": "0.11 ± 0.014 min⁻¹"}
{"SMILES": "O=C(O)c1ccc(/C=C2\\SC(=S)N(Cc3cccc(C(F)(F)F)c3)C2=O)cc1", "target": "NACHT, LRR and PYD domains-containing protein 3 (NLRP3, Homo sapiens, UniProt Q96P20)", "assay": "Flag-NLRP3 and mCherry-NLRP3 interaction, inhibitor", "setting": "concentration not given", "quantity": "NLRP3 oligomerization", "value": "inhibited"}
{"SMILES": "Nc1ncnc2c1ncn2C1OC(CSCCC(N)C(=O)O)C(O)C1O (stereo not drawn)", "target": "5'-methylthioadenosine/S-adenosylhomocysteine nucleosidase (Vibrio cholerae serotype O1, UniProt Q9KPI8)", "assay": "substrate", "quantity": "Km", "value": "24 µM"}
{"SMILES": "Cc1ccccc1N1C(=O)/C(=C/c2ccc(OCc3cccc(C(=O)O)c3)cc2)C(=O)NC1=S", "target": "PTPN1", "assay": "phosphatase activity, inhibitor", "how to read": "reference: LYP IC50 over PTPN1 IC50 inverse", "quantity": "selectivity ratio", "value": "3 fold"}
{"SMILES": "CC(C)C[C@H](NC(=O)[C@H](CO)NC(=O)[C@H](CC(C)C)NC(=O)[C@H](CCC(N)=O)NC(=O)[C@H](CC(N)=O)NC(=O)[C@H](CCC(N)=O)NC(=O)[C@H](CC(=O)O)NC(=O)CCCCCNC(=O)c1ccc2c(c1)C(=O)OC21c2ccc(O)cc2Oc2cc(O)ccc21)C(=O)N[C@@H](Cc1ccccc1)C(=O)O", "target": "Beta sliding clamp (dnaN, Bacillus subtilis, UniProt P05649)", "setting": "concentration not given, unit not given", "how to read": "reference: Escherichia coli clamp", "quantity": "binding weakening", "value": "~5"}
{"SMILES": "CCCCC(=N)NCc1ccc2[nH]c3c(c2c1)CC1(O)C2Cc4ccc(O)c5c4C1(CCN2CC1CC1)C3O5 (stereo not drawn)", "target": "Kappa-type opioid receptor (OPRK1, Homo sapiens, UniProt P41145)", "assay": "[3H]diprenorphine binding", "how to read": "reference: Ki µ over Ki κ", "quantity": "selectivity ratio", "value": "~3"}
{"SMILES": "CC(Cc1ccc(O)cc1)NCC(O)c1ccc(O)c(O)c1 (stereo not drawn)", "target": "Beta-2 adrenergic receptor (ADRB2, Homo sapiens, UniProt P07550)", "assay": "β-arrestin recruitment over cAMP production, agonist, operational model", "how to read": "reference: isoproterenol", "quantity": "bias factor", "value": "~1"}
{"SMILES": "C=C(C)C1C2OC(=O)C1C1(O)CC3OC34C(=O)OC2C14C (stereo not drawn)", "target": "Rdl (Drosophila melanogaster, UniProt P25123, T305V)", "assay": "GABA-induced current, antagonist, two-electrode voltage clamp", "test system": "Xenopus oocytes", "setting": "mutant receptor", "quantity": "Hill coefficient", "value": "0.85 ± 0.18"}
{"SMILES": "CC[C@H](C)[C@H](NC(=O)CNC(=O)[C@@H](NC(=O)[C@@H](N)[C@@H](C)O)[C@@H](C)O)C(=O)NCC(=O)N[C@@H](Cc1ccc(O)cc1)C(=O)N[C@@H](CCC(N)=O)C(=O)N1CCC[C@H]1C(=O)N[C@@H](Cc1ccc(O)cc1)C(=O)N[C@@H](CCCNC(=N)N)C(=O)N[C@H](C(=O)N[C@H](C(N)=O)C(C)C)C(C)C", "target": "ACE2", "assay": "binding", "setting": "pH 8", "quantity": "kon", "value": "320 M⁻¹ s⁻¹"}
{"SMILES": "CCOC(=O)C1C(OC(c2ccc(Cl)cc2)c2ccc(Cl)cc2)CC2CCC1N2C (single isomer, unassigned)", "target": "Adenosine receptor A2a (ADORA2A, Homo sapiens, UniProt P29274)", "assay": "binding", "setting": "10000 nM, together with: [3H]CGS-21680", "quantity": "displacement", "value": "inactive"}
{"SMILES": "CN1C/C(=C\\c2ccccc2)C2=NN(C(N)=S)[C@H](c3ccccc3)[C@@H]2C1", "target": "Adenosylmethionine-8-amino-7-oxononanoate aminotransferase (Mycobacterium tuberculosis, UniProt P9WQ81)", "setting": "100 µg/mL, together with: enzyme 2 µM", "quantity": "inhibition", "value": "> 60%"}
{"SMILES": "Cc1cc(S(=O)(=O)N(C)CC(=O)Nc2ccn(C)c(=O)c2)c2[nH]ncc2c1", "target": "Dihydrolipoyl dehydrogenase (Mycobacterium tuberculosis, UniProt P9WHH9)", "assay": "ITC", "setting": "together with: NADH", "how to read": "reference: without NADH", "quantity": "Kd decrease", "value": "> 2 fold"}
{"SMILES": "CCCCCn1cc(C(=O)c2ccc3ccccc3c2)c2ccccc21", "target": "Cannabinoid receptor 1 (CNR1, Homo sapiens, UniProt P21554)", "assay": "Gαi1 engagement, agonist, BRET", "test system": "HEK293T", "how to read": "reference: reference agonist", "quantity": "Emax", "value": "111 ± 5%"}
{"SMILES": "CCCCCc1cc(O)c2c(c1)OC(C)(C)[C@@H]1CCC(CO)=C[C@@H]21", "target": "Fatty acid-binding protein, liver (FABP1, Homo sapiens, UniProt P07148)", "assay": "binding, DAUDA displacement", "setting": "concentration not given", "how to read": "reference: no competitor", "quantity": "remaining fluorescence", "value": "23 ± 3.8%"}
{"SMILES": "CC1=C[C@H]2c3c(O)cc(CCc4ccccc4)cc3OC(C)(C)[C@H]2CC1", "target": "Cannabinoid receptor 2 (CNR2, Homo sapiens, UniProt P34972)", "assay": "GTPγS binding, agonist, radiometric", "setting": "cell membranes", "quantity": "Emax", "value": "113%"}
{"SMILES": "C[N+](C)(C)CCOC(N)=O", "target": "CHRNA7/glc-2 (Gallus gallus, UniProt P22770+Q17328)", "assay": "binding", "setting": "24 or 48 h, 37 °C", "quantity": "Hill coefficient", "value": "1.7 ± 0.13"}
{"SMILES": "CC[C@H](C)[C@H](NC(=O)[C@H](CO)NC(=O)[C@H](Cc1ccc(O)cc1)NC(=O)[C@H](CC(=O)O)NC(=O)[C@H](CO)NC(=O)[C@@H](NC(=O)[C@H](Cc1ccccc1)NC(=O)[C@@H](NC(=O)CNC(=O)[C@@H]1CCCN1C(=O)[C@H](C)NC(=O)[C@@H](N)Cc1ccc(O)cc1)[C@@H](C)O)[C@@H](C)CC)C(=O)N[C@@H](C)C(=O)N[C@@H](CCSC)C(=O)N[C@@H](CC(=O)O)C(=O)N[C@@H](CCCCN)C(=O)N[C@H](C(=O)N[C@@H](CCCNC(=N)N)C(=O)N[C@@H](CCC(N)=O)C(=O)N[C@@H](CCC(N)=O)C(=O)N[C@@H](CC(=O)O)C(=O)N[C@@H](Cc1ccccc1)C(=O)N[C@H](C(=O)N[C@@H](CC(N)=O)C(=O)N[C@@H](Cc1c[nH]c2ccccc12)C(=O)N[C@@H](CC(C)C)C(=O)N[C@@H](CC(C)C)C(=O)N[C@@H](C)C(=O)N[C@@H](CCC(N)=O)C(=O)N[C@@H](CCCCN)C(=O)NCC(=O)N[C@@H](CCCCN)C(=O)N[C@@H](CCCCN)C(=O)N[C@@H](CC(N)=O)C(=O)N[C@@H](CC(=O)O)C(=O)N[C@@H](Cc1c[nH]c2ccccc12)C(=O)N[C@@H](CCCCN)C(=O)N[C@@H](Cc1c[nH]cn1)C(=O)N[C@@H](CC(N)=O)C(=O)N[C@@H](CC(C)C)C(=O)N[C@H](C(=O)N[C@@H](CCC(N)=O)C(=O)O)[C@@H](C)O)C(C)C)[C@@H](C)CC", "target": "Gastric inhibitory polypeptide receptor (Mus musculus, UniProt Q0P543)", "test system": "COS-7", "quantity": "Emax", "value": "57 ± 14%"}
{"SMILES": "CC(C)C[C@H](NC(=O)OCc1ccccc1)C(=O)N[C@@H](C[C@@H]1CCNC1=O)C(O)S(=O)(=O)O (stereo partly drawn)", "target": "Replicase polyprotein 1ab, main protease (Human coronavirus OC43, UniProt P0C6X6)", "quantity": "k2", "value": "0.31 s⁻¹"}
{"SMILES": "CC(C)C[C@H](NC(=O)[C@@H]1CCCN1C(=O)[C@H](Cc1c[nH]c2ccccc12)NC(=O)[C@H](Cc1ccc(O)cc1)NC(=O)[C@@H](N)CO)C(=O)N[C@@H](CC(N)=O)C(=O)N[C@@H](CC(=O)O)C(=O)N[C@@H](Cc1ccc(O)cc1)C(=O)NCC(=O)N[C@@H](Cc1ccccc1)C(=O)N[C@@H](Cc1ccc(O)cc1)C(=O)N[C@H](C(N)=O)[C@@H](C)O", "target": "ACE2", "assay": "binding", "setting": "pH 8", "quantity": "koff", "value": "0.16 s⁻¹"}
{"SMILES": "C/C=C(\\N)C(=O)CCCCCCCC", "target": "cqsS", "assay": "bioluminescence, agonist", "test system": "Vibrio cholerae", "how to read": "reference: Ea-CAI-1 at 100%", "quantity": "EC50", "value": "112%"}
{"SMILES": "CC(=O)N[C@H]1[C@@H](O)[C@H](O)[C@@H](CO)O[C@H]1O", "target": "N-acetylmannosamine kinase (nanK, Vibrio cholerae serotype O1, UniProt Q9KR61)", "assay": "substrate, ADP-Glo kinase", "setting": "together with: ATP 0.1 mM", "quantity": "Vmax", "value": "0.67 ± 0.02 µM min^–1"}
{"SMILES": "NC1=NN=Cc2ccccc2[O][V](=[O])[O]1.c1cnc2c(c1)ccc1cccnc12", "target": "PTPN1", "how to read": "reference: IC50 PTP1B over IC50 YopH", "quantity": "selectivity ratio", "value": 2.7}
